# Assay results of several laboratories.
# Every numbered part comes from another study and shows a few of its results, in no order. Changes are numbered by the printed parent chain.

# Block 1 — method: RNA Bind-n-Seq; form: RNA; matrix: in vitro; tested at: 365 nM; baseline: no-protein control; reading: higher = stronger binding
# Target: RNA binding protein fox-1 homolog 2, RRM domain, GST-SBP tag (RBFOX2, Homo sapiens, UniProt O43251-10, residues 100-194)
# Setting: natural RNA segment, single round, ends assumed
# Target sequence (chain): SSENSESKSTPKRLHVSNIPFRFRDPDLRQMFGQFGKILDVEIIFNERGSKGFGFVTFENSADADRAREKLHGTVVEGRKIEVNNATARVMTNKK
Strand,RBNS enrichment (R)
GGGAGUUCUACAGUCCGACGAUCAAAAAAAUGUGUUUGAACUAUAUUGUAUGUAAUUUGGAAGUCGUGUUAAUAAAACCCUGCAGUUUCCACUCUGGUUCCGUAGCCUUCAUUUUGUCUGGGCGCUCAGGUCGUGGAAUUCUCGGGUGCCAA,4.23
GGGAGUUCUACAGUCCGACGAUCGGGCCUUGAGCACUGGGGAGCUCUCAAGGUAUACUCUUAGAGUAACUAUAUACCUGUAACUGGACCUGGAGAUGAAGAGAUACCCUCAUUGCUCUGUGUCUGACCCAAUAUGGAAUUCUCGGGUGCCAA,0.527
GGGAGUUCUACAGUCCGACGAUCGGUUCACAGUGCCUGAAUUACACCUGCUCCGAAAACUAGCUUUGUAUUUCUUAUGACUUUGCAUAAGAACUGUUCAUCUUUGGAUCUUGAGCACCUUACAGAUAAAACUUUGGAAUUCUCGGGUGCCAA,0.275
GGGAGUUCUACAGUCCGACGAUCGAUGACAUGCUCCAUACCAGUGGCUAGAUGGAGUAUUAAGGUGGAGCAGAAAAGAAGUGAGAACAUCUUGAUUCCCCUUUCUUUUACUUGAUGGUGUUUAUGAACAUGCCUGGAAUUCUCGGGUGCCAA,0.793
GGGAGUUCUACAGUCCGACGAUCACUUAGCUUUGUAUUUCAAAUGAAUUUGCAUAAAACCUGUUCAUCUUUAGCACCUUAUAGACAAAACUUUUUAUGGCUUUUCUCCCAUGGGCAAUGCUUGAUCUUAUACAUGGAAUUCUCGGGUGCCAA,0.491
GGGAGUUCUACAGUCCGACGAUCUGGUAGGCCUCAUGUCAGAAUCAGGACCCUGCACUUCAGGACCCUUGCUUCUGCCCACCAAUCAGAGUCUGACUGGCAGUGUUAGUCUCCGACAGAGCUUGUACUAGGGCUGGAAUUCUCGGGUGCCAA,0.432
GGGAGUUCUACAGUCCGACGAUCGUUCUGAAUAGUACAGAUUGAUGUGAACACAAAGCAUUUUGUGUAAGGAGAACCCCUUUCUUUUAAAAGAAGUCUGUCUAUUUCGAGGGGAGUUACAGGCAAGUUUGGUAUGGAAUUCUCGGGUGCCAA,0.756
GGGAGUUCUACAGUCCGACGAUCAGUAAGAAAUGACAAACUGCUUUGUUUCAUUUCAUAAACAAACUCUGCAUUUAGAUAACUAUUAAAGGUUGUUAAGAUGAAGAUUUACUGUUUCUUUGUUACUCGUUGGUUGGAAUUCUCGGGUGCCAA,0.298
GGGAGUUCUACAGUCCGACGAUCUGGAAAACCAGGGAUAUUUUUUUUUCCUCAACUUCUUCUCUUUACUCCCUACCCCUCUCCUCCCUAAUUCUGUCUUCCUUCUCUCCACUCUUUUAAGAUUCAGAGGGUACUGGAAUUCUCGGGUGCCAA,0.558
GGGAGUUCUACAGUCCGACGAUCUAAGACCUUUGAUCCCAGGUUCUAACUCAAAGAGGCUGACCUUCCCCCAGCUAAGAUAGCAUGAGGACGUUGUAUUCCAAUAUACGUAUGAUUGGGGCUACAAAGCUGAAUGGAAUUCUCGGGUGCCAA,0.83
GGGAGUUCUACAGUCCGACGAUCAUGGAUAAAAUCAUUAAAGGGAAGCUGGUGCUGCCCCCCUACCUCACCCCGGAUGCCCGGGACCUUGCCAAAAAGUUUCUGAAGCGGAACCCCACUCAGCGAAUUGGGGGUGGAAUUCUCGGGUGCCAA,0.373
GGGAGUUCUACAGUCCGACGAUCAUGGACCGCAGUGCGCUCUGCUCUGGCGCUUUGUAACUCGCUCCUCCCUCUUCGGGGGCAGACCCCACACUCCGGGCAGGUGCUCAAACCUGACGGUAAACUCUUCCCUCUGGAAUUCUCGGGUGCCAA,0.341

# Block 2 — method: RNA Bind-n-Seq; form: RNA; matrix: in vitro; tested at: 1 µM; setting: whole 134-nt RNA, ends assumed; together with: 150 mM KCl; baseline: input library; reading: higher = stronger binding
# Target: Ras GTPase-activating protein-binding protein 1, RRM domain (G3BP1, Homo sapiens, UniProt Q13283)
# Sequence of UniProt Q13283 (whole entry, looked up): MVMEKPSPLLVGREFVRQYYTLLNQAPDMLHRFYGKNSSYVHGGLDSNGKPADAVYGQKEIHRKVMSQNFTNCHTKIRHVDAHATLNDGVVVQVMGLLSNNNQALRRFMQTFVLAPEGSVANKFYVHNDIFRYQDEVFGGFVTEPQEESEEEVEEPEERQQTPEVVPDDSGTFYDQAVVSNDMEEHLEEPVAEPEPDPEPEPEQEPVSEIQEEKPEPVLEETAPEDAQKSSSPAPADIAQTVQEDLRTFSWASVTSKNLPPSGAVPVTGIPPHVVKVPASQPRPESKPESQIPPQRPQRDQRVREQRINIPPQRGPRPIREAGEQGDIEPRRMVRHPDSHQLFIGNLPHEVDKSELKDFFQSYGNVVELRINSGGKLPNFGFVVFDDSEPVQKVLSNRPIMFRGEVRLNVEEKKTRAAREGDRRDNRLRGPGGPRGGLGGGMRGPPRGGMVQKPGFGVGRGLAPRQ
Strand,log2 enrichment
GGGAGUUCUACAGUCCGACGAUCUAACUUUAGAGGAGGAUCUGAUGGAUAUGGCAGUGGACGUGGAUUUGGGGAUGGCUACAAUGGGUAUGGAGGAGGACCUGGAGGUGGCAAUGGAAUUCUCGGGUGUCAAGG,-0.413
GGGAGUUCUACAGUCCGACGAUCCAAGUCCUGUGCUACACAUCGUAUGUACCGAAUCGGGGCCCGGGGCCCGGCCCGGGAAAGUAUUAUGUUACGCCGUUCGGAUCUGCACUUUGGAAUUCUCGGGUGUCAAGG,-0.981
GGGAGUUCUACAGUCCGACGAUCUCCUGUGCUACACAUCGUAUGUACCGAAUCGGGAAAAAAGGAAAAAAGGGGAAAAAAGGAAAGUAUUAUGUUACGCCGUUCGGAUCUGCAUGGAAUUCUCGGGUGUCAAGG,0.0195
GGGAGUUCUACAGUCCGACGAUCGCAGGAAGUAAAAACAAAUGGAAAUGCUUCGGAUAGUGGCAGGGGUGGGGGUUGCUAAGGAAAGGGUGGGAUGCGAGUGGGUAAAGAGUUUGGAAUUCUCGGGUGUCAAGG,1.47
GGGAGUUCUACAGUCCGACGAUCGUCCUGUGCUACACAUCGUAUGUACCGAAUCGGGGAAAAAGGGAAAAAGGGAAAAAGGGAAAGUAUUAUGUUACGCCGUUCGGAUCUGCAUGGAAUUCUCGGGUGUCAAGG,0.122
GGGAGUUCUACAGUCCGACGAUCCCUGUGCUACACAUCGUAUGUACCGAAUCGGGCCCCCCGGGCCCCCCGGGCCCCCCGGGGAAAGUAUUAUGUUACGCCGUUCGGAUCUGCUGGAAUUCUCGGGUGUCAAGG,-0.647
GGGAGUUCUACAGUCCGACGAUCAAGUCCUGUGCUACACAUCGUAUGUACCGAAUCGGGUGGGUUUUUUUGGGAAAGGGAAAGUAUUAUGUUACGCCGUUCGGAUCUGCACUUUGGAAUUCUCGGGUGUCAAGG,0.722
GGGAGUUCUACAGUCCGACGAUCCACAGACAACACGCACCCACACAGACACAGAGGGAAGGGGUUGGGAUGGGGACAGGGUGCACAGCAGGGCGGUGUAGGACCCCAGCCCCUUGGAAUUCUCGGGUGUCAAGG,-0.15
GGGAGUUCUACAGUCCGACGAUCAAGUCCUGUGCUACACAUCGUAUGUACCGAAUCGGAAAGGAAAAAAAGGUUUUUGGAAAGUAUUAUGUUACGCCGUUCGGAUCUGCACUUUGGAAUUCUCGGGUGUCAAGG,-0.165
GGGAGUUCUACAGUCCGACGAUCAAGUCCUGUGCUACACAUCGUAUGUACCGAAUCGGGAAAAAGGGAAAAAGGGAGGGAAAGUAUUAUGUUACGCCGUUCGGAUCUGCACUUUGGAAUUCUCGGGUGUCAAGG,0.979
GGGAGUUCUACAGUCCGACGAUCCUGAAGAGUCUGAGGAUGCCCAAUCACAGAGCCAAGCAGAUGAAGAGGAGGAAGAUGAUGAUUUUGGGGUGGAGUACUUGCUUGCCAGGGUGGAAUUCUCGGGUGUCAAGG,-0.0961
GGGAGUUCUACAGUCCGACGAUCAGUCCUGUGCUACACAUCGUAUGUACCGAAUCGGGUUUGGGAAAGGGAAAAAAAGGGAAAGUAUUAUGUUACGCCGUUCGGAUCUGCACUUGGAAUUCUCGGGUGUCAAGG,0.387
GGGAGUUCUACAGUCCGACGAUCUUCCUCAAGUCCUGUGCUACACAUCGUAUGUACCGAAUCGGUGGGUGGUGGAAAGUAUUAUGUUACGCCGUUCGGAUCUGCACUUCCAGCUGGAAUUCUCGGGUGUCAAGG,-0.133
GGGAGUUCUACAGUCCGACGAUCCUGUGCUACACAUCGUAUGUACCGAAUCGGGGAAAAAGGGGUUUUUGGGGAAAAAAAGGGGAAAGUAUUAUGUUACGCCGUUCGGAUCUGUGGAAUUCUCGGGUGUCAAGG,1.16

# Block 3 — method: DHFR PCA, deep sequencing; matrix: yeast; together with: (+)-ABA 17 µM; baseline: wild-type fitted maximum; reading: higher = stronger binding
# Target: ABI1, truncated, D143A, DHFR fusion (Arabidopsis thaliana)
# Setting: methotrexate growth selection, single substitutions
# Starting sequence: PYL1, truncated, DHFR fusion (Arabidopsis thaliana); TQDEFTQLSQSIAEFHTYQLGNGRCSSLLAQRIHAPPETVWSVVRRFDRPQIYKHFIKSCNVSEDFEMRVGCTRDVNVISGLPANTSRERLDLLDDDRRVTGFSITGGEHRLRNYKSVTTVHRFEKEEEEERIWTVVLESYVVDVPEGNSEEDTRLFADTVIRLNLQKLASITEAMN
Variant,relative binding score
T101Y,60.9%
R90W,-10.3%
L166S,-2.17%
G23F,43.7%
S80V,-13.8%
S42L,51.3%
N177R,66.5%
G102A,68.2%
Y141N,-2.13%

# Further values, each from its own experiment
Substance,target,assay,system,conditions,how to read,quantity,result
"PhoQ, residues 284 288 289 292 302 303 SACGEM","PhoP, residues 12 14 15 18 19 IQSYL (Escherichia coli, UniProt P23836)","Sort-seq, item: YFP reporter",E. coli,"PhoQ-PhoP variant library, together with: 10 µM Mg2+","baseline: high Mg2+ state, higher = stronger signaling",fold induction,14.6
